Experimental data pooled from the literature.
A part holds a random share of what one study measured. Substitutions count along the parent as printed.
UniProt Q99755, sequence (whole entry, looked up): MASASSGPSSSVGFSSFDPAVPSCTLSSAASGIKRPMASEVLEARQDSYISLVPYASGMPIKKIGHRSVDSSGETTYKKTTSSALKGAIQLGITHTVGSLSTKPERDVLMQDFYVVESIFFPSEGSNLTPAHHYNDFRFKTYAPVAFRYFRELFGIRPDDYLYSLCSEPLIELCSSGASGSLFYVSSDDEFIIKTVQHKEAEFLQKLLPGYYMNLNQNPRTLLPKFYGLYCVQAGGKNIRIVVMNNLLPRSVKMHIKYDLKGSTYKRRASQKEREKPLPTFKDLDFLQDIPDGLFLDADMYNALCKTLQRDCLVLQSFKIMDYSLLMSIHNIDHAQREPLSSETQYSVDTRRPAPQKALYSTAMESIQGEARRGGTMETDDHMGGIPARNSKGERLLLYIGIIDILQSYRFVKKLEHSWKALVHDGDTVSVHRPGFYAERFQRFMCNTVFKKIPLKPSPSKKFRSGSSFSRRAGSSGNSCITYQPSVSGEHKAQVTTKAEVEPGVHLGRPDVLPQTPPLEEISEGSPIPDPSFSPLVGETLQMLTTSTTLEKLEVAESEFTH
UniProt Q13882, sequence (whole entry, looked up): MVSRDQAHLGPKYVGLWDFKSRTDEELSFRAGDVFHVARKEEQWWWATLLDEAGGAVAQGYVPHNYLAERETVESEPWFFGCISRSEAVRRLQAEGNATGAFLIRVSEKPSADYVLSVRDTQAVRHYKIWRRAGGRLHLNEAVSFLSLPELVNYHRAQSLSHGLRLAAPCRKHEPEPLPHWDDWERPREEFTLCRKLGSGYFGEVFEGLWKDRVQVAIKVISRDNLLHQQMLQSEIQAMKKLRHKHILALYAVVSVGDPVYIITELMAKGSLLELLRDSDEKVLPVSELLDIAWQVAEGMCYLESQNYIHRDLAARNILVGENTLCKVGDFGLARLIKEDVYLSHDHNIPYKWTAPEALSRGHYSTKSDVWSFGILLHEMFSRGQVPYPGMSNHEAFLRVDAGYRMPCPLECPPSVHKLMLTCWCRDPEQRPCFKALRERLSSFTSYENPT
UniProt O94768, sequence (whole entry, looked up): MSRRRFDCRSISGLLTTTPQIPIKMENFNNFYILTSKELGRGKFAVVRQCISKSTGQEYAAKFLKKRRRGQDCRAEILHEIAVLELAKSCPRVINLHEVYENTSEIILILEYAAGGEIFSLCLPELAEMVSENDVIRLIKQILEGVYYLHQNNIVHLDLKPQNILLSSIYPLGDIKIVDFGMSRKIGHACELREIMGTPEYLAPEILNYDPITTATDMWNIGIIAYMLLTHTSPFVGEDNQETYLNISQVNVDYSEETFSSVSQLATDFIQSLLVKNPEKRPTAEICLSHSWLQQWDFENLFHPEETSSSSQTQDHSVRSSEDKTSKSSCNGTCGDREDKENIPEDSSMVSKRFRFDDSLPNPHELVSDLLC

Sample 1 — cell line: HaCaT; tested at: 100 µM; time: 60 h; measurement: viability
NCC1(CC(=O)O)CCCCC1: 150%
CC(C)NCC(O)c1ccccc1Cl (centres unmarked): 139%
CCOC(=O)c1cncn1[C@H](C)c1ccccc1: 125%

Sample 2 — cell line: mouse MPNST tumor cells; technique: high-content immunofluorescence imaging; measured: nuclear SOX9; tested at: 10 µM; time: 12 h; setting: mean of 2 replicates; baseline: DMSO control; direction: higher = more nuclear SOX9; measurement: nuclear SOX9 intensity
CC[C@H]1CN2CC[C@H]1C[C@@H]2[C@@H](O)c1ccnc2ccc(OC)cc12: 114 % of DMSO
CCOC(=O)c1ncc2[nH]c3ccc(OCc4ccccc4)cc3c2c1COC: 121 % of DMSO
COc1ccc2c(c1)[C@]13CCCC[C@@H]1[C@H](C2)N(C)CC3: 117 % of DMSO

Sample 3 — organism: Sarcocystis neurona; effect on: parasite growth; tested at: 10 µM; time: 96 h; measurement: inhibition
CN1C(=O)COc2c(C(=O)NC3CN4CCC3CC4)cc(Cl)cc21 (centres unmarked): -9.4%
CN1CCN(C(=O)O[C@H]2c3nccnc3C(=O)N2c2ccc(Cl)cn2)CC1: -16.7%
FC(F)(F)c1cccc(N2CCNCC2)c1: -15.4%

Sample 4 — effect on: cell-free assay; technique: competition with immobilised ligand; tested at: 1 µM; measurement: remaining binding
Structure (SMILES): Cn1cncc1[C@](O)(COc1ccc(C#N)cc1-c1ccc(OC(F)(F)F)cc1)c1ccc(C#N)cc1
Phosphatidylinositol 4-phosphate 3-kinase C2 domain-containing subunit beta (PIK3C2B, Homo sapiens, UniProt O00750): 89%
Phosphatidylinositol 4-phosphate 5-kinase type-1 alpha (PIP5K1A, Homo sapiens, UniProt Q99755): 91%
Casein kinase I isoform gamma-2 (CSNK1G2, Homo sapiens, UniProt P78368): 78%
1-phosphatidylinositol 3-phosphate 5-kinase (PIKFYVE, Homo sapiens, UniProt Q9Y2I7): 100%
cAMP-dependent protein kinase catalytic subunit alpha (PRKACA, Homo sapiens, UniProt P17612): 81%
Serine/threonine-protein kinase 17B (STK17B, Homo sapiens, UniProt O94768): 64%
Tyrosine-protein kinase ABL1, phosphorylated (ABL1, Homo sapiens, UniProt P00519, Q252H): 100%
Dual specificity tyrosine-phosphorylation-regulated kinase 2 (DYRK2, Homo sapiens, UniProt Q92630): 52%
Homeodomain-interacting protein kinase 2 (HIPK2, Homo sapiens, UniProt Q9H2X6): 100%
Non-receptor tyrosine-protein kinase TNK1 (TNK1, Homo sapiens, UniProt Q13470): 56%
Mitogen-activated protein kinase kinase kinase kinase 5 (MAP4K5, Homo sapiens, UniProt Q9Y4K4): 100%
Protein-tyrosine kinase 6 (PTK6, Homo sapiens, UniProt Q13882): 100%
TGF-beta receptor type-1 (TGFBR1, Homo sapiens, UniProt P36897): 81%
Serine/threonine-protein kinase LATS1 (LATS1, Homo sapiens, UniProt O95835): 87%
Casein kinase I isoform gamma-3 (CSNK1G3, Homo sapiens, UniProt Q9Y6M4): 71%
Cyclin-dependent kinase 18 (CDK18, Homo sapiens, UniProt Q07002): 90%
Leucine-rich repeat serine/threonine-protein kinase 2 (LRRK2, Homo sapiens, UniProt Q5S007, G2019S): 92%
Tyrosine-protein kinase receptor TYRO3 (TYRO3, Homo sapiens, UniProt Q06418): 61%
Tyrosine-protein kinase ABL1, phosphorylated (ABL1, Homo sapiens, UniProt P00519, H396P): 100%
Serine/threonine-protein kinase NLK (NLK, Homo sapiens, UniProt Q9UBE8): 89%
Tyrosine-protein kinase ABL1, non-phosphorylated (ABL1, Homo sapiens, UniProt P00519): 100%
Ribosomal protein S6 kinase alpha-2, C-terminal kinase domain (RPS6KA2, Homo sapiens, UniProt Q15349): 85%
Proto-oncogene tyrosine-protein kinase receptor Ret (RET, Homo sapiens, UniProt P07949, V804M): 99%
Hepatocyte growth factor receptor (MET, Homo sapiens, UniProt P08581): 74%
Cyclin-dependent kinase-like 3 (CDKL3, Homo sapiens, UniProt Q8IVW4): 87%

Sample 5 — effect on: enzyme activity; mode: inhibitor; tested at: 77 µM; baseline: untreated; measurement: remaining activity
Target: DNA polymerase theta, ATPase domain (POLQ, Homo sapiens, UniProt O75417)
UniProt O75417, sequence (whole entry, unmodified, looked up): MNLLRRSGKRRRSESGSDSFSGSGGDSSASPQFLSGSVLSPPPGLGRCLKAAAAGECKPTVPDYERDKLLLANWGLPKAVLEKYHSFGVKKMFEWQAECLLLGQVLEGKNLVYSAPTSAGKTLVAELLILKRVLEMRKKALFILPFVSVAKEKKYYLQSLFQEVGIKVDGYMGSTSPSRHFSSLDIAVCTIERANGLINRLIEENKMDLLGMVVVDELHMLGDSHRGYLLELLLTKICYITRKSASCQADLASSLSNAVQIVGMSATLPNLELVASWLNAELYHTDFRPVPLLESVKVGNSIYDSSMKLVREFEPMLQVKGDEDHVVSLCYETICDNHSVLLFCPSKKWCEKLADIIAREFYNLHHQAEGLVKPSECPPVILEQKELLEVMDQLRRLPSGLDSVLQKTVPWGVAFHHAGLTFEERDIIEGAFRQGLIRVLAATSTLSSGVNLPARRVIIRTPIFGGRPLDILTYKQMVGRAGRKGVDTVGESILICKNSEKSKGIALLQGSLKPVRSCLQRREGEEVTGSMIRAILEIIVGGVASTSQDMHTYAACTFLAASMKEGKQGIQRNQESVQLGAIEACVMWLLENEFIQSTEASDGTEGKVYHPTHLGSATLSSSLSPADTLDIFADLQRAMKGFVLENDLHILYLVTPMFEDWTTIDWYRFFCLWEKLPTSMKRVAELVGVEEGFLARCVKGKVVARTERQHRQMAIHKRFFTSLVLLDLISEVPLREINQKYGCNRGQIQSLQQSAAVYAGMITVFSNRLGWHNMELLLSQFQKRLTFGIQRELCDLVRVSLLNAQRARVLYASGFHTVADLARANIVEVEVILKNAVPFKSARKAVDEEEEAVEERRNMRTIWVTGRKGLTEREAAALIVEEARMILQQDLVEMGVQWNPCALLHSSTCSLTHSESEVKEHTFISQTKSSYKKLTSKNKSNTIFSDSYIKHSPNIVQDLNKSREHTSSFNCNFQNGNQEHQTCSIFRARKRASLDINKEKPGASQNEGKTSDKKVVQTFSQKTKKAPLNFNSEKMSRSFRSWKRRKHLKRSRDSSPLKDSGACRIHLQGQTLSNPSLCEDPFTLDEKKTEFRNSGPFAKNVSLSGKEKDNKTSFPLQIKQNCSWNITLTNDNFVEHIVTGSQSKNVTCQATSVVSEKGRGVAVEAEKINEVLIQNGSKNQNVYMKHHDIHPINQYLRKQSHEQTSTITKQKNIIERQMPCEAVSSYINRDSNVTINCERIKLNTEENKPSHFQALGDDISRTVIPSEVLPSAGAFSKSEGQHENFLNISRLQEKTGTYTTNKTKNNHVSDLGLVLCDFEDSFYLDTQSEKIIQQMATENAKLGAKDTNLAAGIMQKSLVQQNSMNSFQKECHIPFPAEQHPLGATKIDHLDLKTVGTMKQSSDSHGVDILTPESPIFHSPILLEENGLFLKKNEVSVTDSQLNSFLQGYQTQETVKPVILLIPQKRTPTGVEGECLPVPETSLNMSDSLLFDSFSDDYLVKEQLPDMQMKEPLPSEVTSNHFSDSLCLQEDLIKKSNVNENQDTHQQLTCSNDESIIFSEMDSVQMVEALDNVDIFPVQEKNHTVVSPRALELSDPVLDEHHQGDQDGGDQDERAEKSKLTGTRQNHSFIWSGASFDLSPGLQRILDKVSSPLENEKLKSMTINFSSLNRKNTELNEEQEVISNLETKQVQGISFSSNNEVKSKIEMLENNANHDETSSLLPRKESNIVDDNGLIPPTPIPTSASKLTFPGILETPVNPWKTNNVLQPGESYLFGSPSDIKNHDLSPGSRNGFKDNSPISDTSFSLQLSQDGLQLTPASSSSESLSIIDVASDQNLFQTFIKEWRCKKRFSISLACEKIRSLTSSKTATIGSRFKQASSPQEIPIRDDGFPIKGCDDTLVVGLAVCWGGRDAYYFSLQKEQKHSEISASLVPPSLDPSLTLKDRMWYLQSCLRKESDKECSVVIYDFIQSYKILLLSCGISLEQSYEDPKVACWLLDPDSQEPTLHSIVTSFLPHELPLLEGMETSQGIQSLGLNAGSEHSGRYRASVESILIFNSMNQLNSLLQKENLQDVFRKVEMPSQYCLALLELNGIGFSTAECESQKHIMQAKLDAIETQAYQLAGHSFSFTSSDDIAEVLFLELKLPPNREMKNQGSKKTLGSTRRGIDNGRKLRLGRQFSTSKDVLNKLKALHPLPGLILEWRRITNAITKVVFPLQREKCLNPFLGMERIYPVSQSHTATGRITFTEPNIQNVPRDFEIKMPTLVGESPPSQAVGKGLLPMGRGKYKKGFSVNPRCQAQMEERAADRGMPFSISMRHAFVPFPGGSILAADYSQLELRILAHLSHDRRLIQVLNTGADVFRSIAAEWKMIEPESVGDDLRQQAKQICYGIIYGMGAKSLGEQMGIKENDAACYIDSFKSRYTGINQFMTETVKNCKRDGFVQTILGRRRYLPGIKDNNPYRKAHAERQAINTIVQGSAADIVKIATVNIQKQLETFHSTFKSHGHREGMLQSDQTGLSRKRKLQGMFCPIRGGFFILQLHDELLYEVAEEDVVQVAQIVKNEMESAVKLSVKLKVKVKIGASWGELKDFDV
O=C1NCN(c2ccccc2)C12CCN(CC1COc3ccccc3O1)CC2 (centres unmarked): 95.2%
C=C(C)[C@H]1CN[C@H](C(=O)O)[C@H]1CC(=O)O: 107%
COc1ccc2c(c1)[C@]13CCCC[C@@H]1[C@H](C2)N(C)CC3: 102%

Sample 6 — target: CCNE1, cyclin fold, Cln2 fusion (human); technique: yeast growth competition, sequencing; matrix: yeast; setting: strong parent motif; baseline: not given; direction: higher = stronger binding; measurement: normalised enrichment score; starting sequence: viral docking peptide; CKVKRKLFGSENI
S10A: 4.85
L7A: 1.05
K4A: 3.75
R5K F8L: -0.00208
R5K: 0.856
V3A: 5.08
I13A: 5.52
E11A: 3.57

Sample 7 — effect on: enzyme activity; mode: inhibitor; tested at: 10 µM; measurement: inhibition
Target: Calcium/calmodulin-dependent protein kinase type II subunit alpha (CAMK2A, Homo sapiens, UniProt Q9UQM7)
UniProt Q9UQM7, sequence (whole entry, looked up): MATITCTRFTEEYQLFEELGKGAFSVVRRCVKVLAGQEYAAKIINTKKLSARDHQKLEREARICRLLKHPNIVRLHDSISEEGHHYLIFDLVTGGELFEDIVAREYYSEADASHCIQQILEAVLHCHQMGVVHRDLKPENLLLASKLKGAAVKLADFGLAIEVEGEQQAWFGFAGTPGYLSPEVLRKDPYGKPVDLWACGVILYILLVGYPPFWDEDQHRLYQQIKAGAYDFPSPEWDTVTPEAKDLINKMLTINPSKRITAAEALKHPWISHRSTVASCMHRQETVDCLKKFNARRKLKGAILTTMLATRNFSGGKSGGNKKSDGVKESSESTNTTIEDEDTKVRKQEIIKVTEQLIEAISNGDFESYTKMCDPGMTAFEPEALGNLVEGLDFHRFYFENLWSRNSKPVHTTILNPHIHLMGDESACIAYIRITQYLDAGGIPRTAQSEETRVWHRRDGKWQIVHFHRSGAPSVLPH
COc1ccc(CC2c3cc(OC)c(OC)cc3CCN2C)cc1OC (racemic): -15%
C=C(C)[C@H]1Cc2c(ccc3c2O[C@@H]2COc4cc(OC)c(OC)cc4[C@@H]2C3=O)O1: 10%
N[C@H]1C[C@@H]1c1ccccc1: -8%

Other studies, line by line — mode: antagonist
Target: Beta-1 adrenergic receptor (ADRB1, Homo sapiens, UniProt P08588)
UniProt P08588, sequence (whole entry, looked up): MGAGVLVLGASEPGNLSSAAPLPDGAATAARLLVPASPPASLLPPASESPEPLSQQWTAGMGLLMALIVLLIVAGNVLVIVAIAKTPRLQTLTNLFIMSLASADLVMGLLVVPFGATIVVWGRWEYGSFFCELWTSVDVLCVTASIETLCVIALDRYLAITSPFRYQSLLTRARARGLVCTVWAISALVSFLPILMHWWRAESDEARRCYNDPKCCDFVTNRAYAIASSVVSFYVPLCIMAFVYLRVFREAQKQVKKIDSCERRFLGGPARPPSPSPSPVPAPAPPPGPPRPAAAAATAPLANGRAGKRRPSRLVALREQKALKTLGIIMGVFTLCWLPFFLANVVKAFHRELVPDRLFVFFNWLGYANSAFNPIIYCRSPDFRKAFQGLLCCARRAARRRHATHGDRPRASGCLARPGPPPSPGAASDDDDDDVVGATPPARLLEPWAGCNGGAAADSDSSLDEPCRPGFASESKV
CC(C)(C)NCC(O)c1ccccc1F (centres unmarked)  IC50: ≥ 100 µM
CC(C)[C@@]1(NC(=O)[C@H]2C[C@H]3c4cccc5[nH]cc(c45)C[C@@H]3N(C)C2)O[C@]2(O)[C@H]3CCCN3C(=O)CN2C1=O  IC50: ≥ 100 µM

A few entries again (sample 4):
Phosphatidylinositol 4-phosphate 3-kinase C2 domain-containing subunit beta (PIK3C2B, Homo sapiens, UniProt O00750): 89%
Tyrosine-protein kinase ABL1, phosphorylated (ABL1, Homo sapiens, UniProt P00519, H396P): 100%
Casein kinase I isoform gamma-3 (CSNK1G3, Homo sapiens, UniProt Q9Y6M4): 71%
Tyrosine-protein kinase ABL1, non-phosphorylated (ABL1, Homo sapiens, UniProt P00519): 100%
Cyclin-dependent kinase 18 (CDK18, Homo sapiens, UniProt Q07002): 90%
Proto-oncogene tyrosine-protein kinase receptor Ret (RET, Homo sapiens, UniProt P07949, V804M): 99%
Protein-tyrosine kinase 6 (PTK6, Homo sapiens, UniProt Q13882): 100%
